Assay results collected from several papers.
Parts stem from different laboratories: compare values within a part only.

Sample 1 — technique: Spec-seq; molecule type: double-stranded DNA, one strand shown; medium: in vitro; tested at: not given; setting: whole probe, mean of replicates; reference: not given; direction: lower = stronger binding; constant ends, left off below: GAGTCGTCTCGTCAGCAC … CCGTAGAGCACTCAGGTC
Target: POU, POU domain (Salpingoeca helianthica)
Construct (chain): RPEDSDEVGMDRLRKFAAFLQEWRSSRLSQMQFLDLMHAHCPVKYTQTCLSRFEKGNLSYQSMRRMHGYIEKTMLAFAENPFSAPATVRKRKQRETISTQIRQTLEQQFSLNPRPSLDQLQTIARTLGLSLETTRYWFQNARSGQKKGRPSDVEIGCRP
| Strand | relative binding energy [ln ratio] |
| --- | --- |
| ATGCTCAC | 1.15 |
| ATTCATAT | 0.718 |
| GCCGTAAT | 0.87 |
| ATCCGCAT | 1.23 |
| CCCATAAT | 0.763 |

Sample 2 — technique: protein-binding microarray; molecule type: double-stranded DNA, one strand shown; medium: in vitro; tested at: 2200 nM top; setting: 60-bp whole probe; together with: salmon DNA 0.4 mg/ml; reference: random background probes; direction: higher = stronger binding
Target: Interferon regulatory factor 7, full length, phosphomimetic (IRF7, Homo sapiens, UniProt Q92985, residues 1-503, S471D/S472D/S475D/S476D/S477D/S483D/S484D/S487D)
Residues (chain): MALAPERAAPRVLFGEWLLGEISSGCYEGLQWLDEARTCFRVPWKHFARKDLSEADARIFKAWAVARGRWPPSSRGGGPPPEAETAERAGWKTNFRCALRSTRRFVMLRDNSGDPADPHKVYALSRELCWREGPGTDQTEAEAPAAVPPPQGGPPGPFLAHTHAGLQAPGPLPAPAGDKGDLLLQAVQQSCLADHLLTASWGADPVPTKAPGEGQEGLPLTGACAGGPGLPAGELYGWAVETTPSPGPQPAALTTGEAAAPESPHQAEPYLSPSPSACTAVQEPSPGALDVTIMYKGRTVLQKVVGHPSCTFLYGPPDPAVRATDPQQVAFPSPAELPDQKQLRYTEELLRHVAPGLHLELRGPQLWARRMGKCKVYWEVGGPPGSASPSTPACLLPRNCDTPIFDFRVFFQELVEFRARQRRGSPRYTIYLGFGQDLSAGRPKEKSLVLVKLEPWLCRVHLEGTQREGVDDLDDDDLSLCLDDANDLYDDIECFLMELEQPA
| Strand | fitted relative affinity |
| --- | --- |
| GCCTAGCACGACGGTATAGACACTGGGGACGTGCTAGTCTTGATTCGCTTGACGCTGCTG | -0.538 z-score |
| GCCTAGCACTTAGGTTGCCTTATCCTTTAGTGCTAGGTCTTGATTCGCTTGACGCTGCTG | 0.743 z-score |
| GCCTAGCACTCAGGTGTTCTTTTCTGACTGTGCTAGGTCTTGATTCGCTTGACGCTGCTG | 1.07 z-score |
| GCCTAGCACTCATTTTCGTTTTTATTATTGTGCTAGGTCTTGATTCGCTTGACGCTGCTG | 12 z-score |

Sample 3 — technique: protein binding microarray; molecule type: double-stranded DNA, one strand shown; medium: in vitro; tested at: not given; reference: not given; direction: higher = stronger binding
Target: Histone acetyltransferase KAT6A, both winged helices, GST fusion (KAT6A, Homo sapiens, UniProt Q92794, residues 1-181)
Setting: 8-mer, flanks averaged, mean of 2 arrays, mostly near background
Construct (chain): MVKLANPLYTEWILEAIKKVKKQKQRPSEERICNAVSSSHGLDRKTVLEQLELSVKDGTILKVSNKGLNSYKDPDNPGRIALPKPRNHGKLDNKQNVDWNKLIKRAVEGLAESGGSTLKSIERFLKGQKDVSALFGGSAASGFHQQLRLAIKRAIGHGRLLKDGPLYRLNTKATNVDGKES
| Strand | E-score |
| --- | --- |
| CTCGATGC | -0.156 |
| CAGCATGC | 0.109 |
| CGACGCAG | 0.186 |
| CAGTTGAC | -0.0284 |

Other studies, line by line
| Molecule | target | assay | test system | setting | scale | endpoint | result |
| --- | --- | --- | --- | --- | --- | --- | --- |
| PhoQ, residues 284 288 289 292 302 303 AAQSYM | PhoP, residues 12 14 15 18 19 NNFVT (Escherichia coli, UniProt P23836) | Sort-seq, measured: YFP reporter | E. coli | PhoQ-PhoP variant library, together with: 10 µM Mg2+ | reference: high Mg2+ state, higher = stronger signaling | fold induction | 20.8 |

Excerpt of the above (sample 1):
| Strand | relative binding energy [ln ratio] |
| --- | --- |
| GCCGTAAT | 0.87 |
| ATCCGCAT | 1.23 |
